Assay results of several laboratories.
Several values in a cell are separate wells, animals, samples, runs or records. Numbers after ± are the reported error.
UCHL1: Ubiquitin carboxyl-terminal hydrolase isozyme L1 (UCHL1, Homo sapiens, UniProt P09936)
Sequence of UniProt P09936 (whole entry, looked up): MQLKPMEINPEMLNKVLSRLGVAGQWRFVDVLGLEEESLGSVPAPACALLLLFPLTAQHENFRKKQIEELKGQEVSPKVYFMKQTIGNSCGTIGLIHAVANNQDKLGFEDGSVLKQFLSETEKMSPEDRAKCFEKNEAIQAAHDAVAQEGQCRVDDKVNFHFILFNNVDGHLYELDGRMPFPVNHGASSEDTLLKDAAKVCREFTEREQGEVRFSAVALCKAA

SMILES | target or system | test | test system | setting | scale | endpoint | result
Cc1cc(Nc2cc3ncccc3c(N[C@@H]3C[C@H]4CC[C@@H](C3)N4CCC#N)n2)n[nH]1 |  |  | healthy human subjects | oral, 30 mg, 2 weeks, single ascending dose |  | papular rash incidence | 0%
COC(=O)CNC(=O)c1nc(Cl)c2ccccc2c1O |  |  |  |  |  | pKa (acidic) | 5.8
OCc1nc2ccc(NCc3ccc(C(F)(F)F)cc3)cc2[nH]1 |  |  | Balb/c mice, male, plasma | intravenous, 1 mg/kg |  | Vz/F | 28.7 ± 4.5 L/kg
Cn1cc(-c2cn3nccc3c(-c3cnn([C@]4(CC#N)C[C@@H](C#N)C4)c3)n2)cn1 |  |  | healthy humans fasted, plasma | 3 mg single dose, geometric mean |  | mean residence time | 5.6 h
CCN1/C(=C/C(C)=O)Sc2ccc(F)cc21 |  |  | cynomolgus monkey | oral, 30 mg/kg, 6 h post-dose | relative to: pre-dose | systolic blood pressure change | 102 ± 3.8%
C[C@@H]1COCCN1c1cc(C2([S@](C)(=N)=O)CC2)nc(-c2cc[nH]c3nccc2-3)n1 |  |  | Japanese advanced solid tumour patients | oral, 240 mg twice daily, any grade |  | Constipation incidence | 33.3%
O=C(CCCN1CC=C(n2c(=O)[nH]c3ccccc32)CC1)c1ccc(F)cc1 |  |  | male Hartley guinea pigs, anaesthetized | intravenous, 0.1 mg/kg over 10 min, after infusion |  | mean blood pressure | 31 ± 0.2 mmHg
C[C@H]1CNC(=O)c2cnn3ccc(nc23)N[C@H](C)c2cc(F)ccc2O1 |  |  | Balb/c nude mice, female, brain | oral, 15 mg/kg twice daily, 1 h, steady state |  | unbound concentration | 3.1 ± 0.7 nM
CNCCOC12CC3(C)CC(C)(CC(Cn4ncc(-c5ccc(N6CCc7cccc(C(=O)Nc8nc9ccccc9s8)c7C6)nc5C(=O)O)c4C)(C3)C1)C2 |  |  | beagle dog, male, anaesthetised | intravenous bolus, 0.03 mg/kg, 60 min | relative to: baseline | QTcV interval change | 13 ms
FC(F)(F)c1ccc(CNc2ccc(Cc3c[nH]c4ncc(Cl)cc34)cn2)cn1 |  | item: Dysgeusia | patients with advanced solid tumours, non-TGCT cohort | oral, 1000 mg/day, any grade |  | treatment-related adverse events | 12%
O=S(=O)(c1ccc(-c2ccc3nccc(Nc4ccncn4)c3c2)cc1)N1CCOCC1 |  |  | female BALB/c mice, brain | intraperitoneal, 10 mg/kg, 24 h, mean |  | brain concentration | 0 ng/g
Cc1cc(-c2nnc(N)nc2-c2ccc(F)cc2)cc(Cl)n1 |  | item: Fatigue | human phase Ia/Ib mCRPC, immunotherapy-naive | oral, dose not given |  | patients with treatment-related adverse events | 29.2%
CCCCOC(=O)N1CCN(C(=O)[C@H](CP(=O)(O)O)NC(=O)c2cc(N3CC[C@H](OC)C3)nc(-c3ccccc3)n2)CC1 |  | item: alanine aminotransferase | human, blood | 8 mg, 24 h |  | change from baseline | -0.8 ± 4.1 U/L
Cc1c(-c2ccc(N3CCc4cccc(C(=O)Nc5nc6ccccc6s5)c4C3)nc2C(=O)O)cnn1CC12CC3(C)CC(C)(C1)CC(OCCNCC[C@H](O)CO)(C3)C2 |  |  | beagle dog, male, anaesthetised | intravenous infusion, 0.3 mg/kg/min, 15 min | relative to: vehicle | QTcV interval change | 1 ms
OC[C@H]1O[C@@H](c2ccc(Cl)c(Cc3ccc(O[C@H]4CCOC4)cc3)c2)[C@H](O)[C@@H](O)[C@@H]1O |  |  | Japanese type 1 diabetes patients, blood | 25 mg, day 28 | relative to: baseline | change in AST | 2 U/L
CC(C)n1c(Nc2cccnc2)nc2cnc(Nc3ccc(N4CCN(C)CC4)cc3)nc21 |  | item: nodal rhythm | healthy male subjects | oral, 100 mg, study, added: gemfibrozil |  | subjects with adverse event | 0%
CCOc1c([C@H](C)n2nc(C)c3c(N)ncnc32)cc(Cl)c(F)c1[C@@H]1CNC(=O)C1 |  | item: QTcF > 500 ms | previously treated B-cell malignancy | oral, dose not given, baseline QTcF ≤450 ms, all doses |  | share of ECG observations | 0%
Cl.[2H]C([2H])([2H])CC(=O)c1cnc(NC(=O)C2CC2)cc1Nc1cccc(-c2ncn(C([2H])([2H])[2H])n2)c1OC |  | geometric mean | human | oral, 10 mg single dose, fasted, liquid |  | elimination rate constant | 2.08e-05 s⁻¹
O=C1NCCc2nc(OCc3cccc(F)c3)ccc21 |  | item: Miosis | Sprague-Dawley rat, male | oral, 100 mg/kg, 1 h, score 0 none to 2 full | direction not given | Irwin test score | 0
COCc1cc(C(=O)Nc2cc([C@H]3CC[C@@H](OC(=O)NC(C)C)C3)[nH]n2)n(C)n1 |  |  | OVCAR-3 xenograft, NOD/SCID gamma mice, plasma | oral, 175 twice daily, tumour growth inhibition study |  | unbound C24h | 373 nM
C=CC(=O)Nc1cc(Nc2nccc(-c3cn(C)c4ccccc34)n2)c(OC)cc1N(C)CCN(C)C |  |  | human patients | oral, cycle 3 day 1, safety run-in, mean, added: pemetrexed + cisplatin |  | CLss/F | 17.2 L/h
N#CC(=Cc1cc(F)ccc1F)C(=O)Nc1ccc(F)cc1F | UCHL1 | covalent, intact protein LC-MS |  | 12.5 µM |  | labelling | 19.9%
[18F]c1ccc(-c2ccc3c(c2)[nH]c2ccncc23)cn1 |  | ex vivo biodistribution | B6SJL mouse, normal, cortex | intravenous, 30 min |  | SUV | 0.471 ± 0.155

SMILES | target or system | test | test system | setting | scale | endpoint | result
O=C(O)CCCOc1ccc([18F])cc1-c1cc(-c2ccccc2C(F)(F)F)n(-c2ccccc2)n1 |  | gamma counting | male ddY mice, liver | intravenous, 2.1 MBq, 60 min |  | radioactivity uptake | 0.79 ± 0.15 SUV
COc1cc(C(=O)N2CCC3(CC2)CC(=O)c2c(cnn2C(C)C)C3)cc(-c2ccc(C(=O)O)cc2)n1 |  | item: HDL cholesterol | human, fasting serum | 30 mg every 12 h, day 13, adjusted geometric mean | relative to: baseline and placebo | placebo-adjusted change from baseline | -13.7%
CC1(C)S[C@@H]2[C@H](NC(=O)[C@H](N)c3ccc(O)cc3)C(=O)N2[C@H]1C(=O)O |  |  | male Hartley guinea pigs, anaesthetized | intravenous, 10 mg/kg group, baseline before infusion |  | mean blood pressure | 38 ± 0.3 mmHg
CNC(=O)c1ccc(-c2cnc3ncc(Cc4ccc5ncccc5c4)n3n2)cc1F |  | CTCAE v4.0, any causality | human cancer patients | oral, dose not given, dose escalation |  | bilirubin increase incidence (all grades) | 18%
CN(C)C(=O)c1ncccc1O |  |  |  |  |  | pKa (basic) | 2.3
Cc1c(Br)cc(NC(=O)C(c2ccccc2)S(=O)(=O)O)cc1Br (stereo not drawn) |  |  | CD-1 mice, whole blood | intravenous, 2 mg/kg |  | C0 | 4.94 µM
CC#CC(=O)N1C[C@@H]2CN(S(=O)(=O)c3ccc(OC)cc3)C[C@H](C1)O2 | UCHL1 | covalent, intact protein LC-MS |  | 12.5 µM |  | labelling | 12.7%
NC(=O)C(CCCCNC(=O)CN1CCN(CC(=O)[O-])CCN(CC(=O)[O-])CCN(CC(=O)[O-])CC1)NC(=O)OCC1c2ccccc2-c2ccccc21.[Gd+3] (stereo not drawn) |  |  | fetal bovine serum | 20 °C, 1.0 T, non-self-assembled |  | relaxivity r1 | 8.8 ± 0.2 mM⁻¹ s⁻¹
COc1ccnc(C(=O)NC(CO)C(=O)O)c1O (racemic) |  | aerobic dark soil incubation | silt loam soil | 20 °C, modelling endpoint |  | DT50 | 1000 days
CCCCc1oc2ccccc2c1C(=O)c1cc(I)c(OCCN(CC)CC)c(I)c1 |  |  | male Hartley guinea pigs, anaesthetized | intravenous, 10 mg/kg over 10 min, after infusion |  | mean blood pressure | 30 ± 0.2 mmHg
Cc1nc(-c2ccc(OCC(C)C)c(C#N)c2)sc1C(=O)O |  |  | human, plasma | oral, 20 mg, added: verinurad 5 mg | relative to: test over reference | geometric mean ratio Cmax | 122
C[C@@H](N)C1CCN(S(=O)(=O)c2cccc3cnccc23)CC1 |  |  | healthy volunteers | 75 mg, fasted |  | participants with headache | 0%
COc1cc2c3c(n(CCCN4CCOCC4)c(=O)c2cc1OC)-c1cc2c(cc1C3=O)OCO2 |  |  | beagle dogs, female, plasma | oral, 860 mg/m^2, gelatin capsules |  | Cmax | 483 ng/mL and 1.6 ng/mL
COc1ccc([C@@H](O)c2cc(-c3ncnc4cc(N5CCOCC5)ccc34)c(F)cc2Cl)nn1 |  |  | locally advanced rectal cancer patients | 250 mg, added: capecitabine and radiotherapy |  | investigations TEAE | 50%
Cc1cccc(CNC(=O)c2cn(CCNC(=O)c3ccccc3Sc3c([N+](=O)[O-])ncn3C)c3cc4c(cc3c2=O)OCO4)n1 |  |  | human, whole blood | 1 µM, 2 h |  | remaining compound | 81.9%
CC(C)(C(=O)N1CCOc2c(C#N)cncc2C1)C(F)F |  | item: gingival bleeding | human, both sexes | oral, 15 mg twice daily, 14 days, multiple ascending dose |  | subjects with TEAE | 0%
CCC(CC)C(=O)Oc1cccc(C(O)CCN)c1.O=CO (stereo not drawn) |  | scotopic ERG | BALB/cJ mice | intraperitoneal, 10 mg/kg, 4 h dark adaptation, added: 10,000 lx photobleach, 10 min |  | ERG b-wave amplitude | 63 µV and 56 µV and 73 µV and 149 µV and 220 µV and 166 µV
Cc1ccc(Sc2ccccc2N2CCNCC2)c(C)c1 |  | item: AST increased | healthy adult men | oral, 5 mg daily, 12 days |  | participants with TEAE | 16.7%
Cc1ccc(C(=O)Nc2ccnc(S(N)(=O)=O)c2)c(N2CCCC(F)(F)CC2)n1 |  |  | rhesus monkey, plasma | oral, 10 mg/kg |  | unbound plasma concentration | 195 to 394 nM
COc1ccc(C[C@@H](C)[C@@H](C)Cc2ccc(OC)c(OC)c2)cc1OC |  |  | beagle dog male, plasma | oral, 300 mg/kg/day, day 28, median |  | Tmax | 1 h
NC(=O)N1c2ccccc2C=Cc2ccccc21 |  | item: muscle twitching | human male | oral, dose not given, AEs, treatment-related, on drug, CTCAE |  | adverse events incidence | 7%
COc1ccc2c(c1)CN(C(=O)CCN1CCC(Cc3ccccc3)CC1)CC[S@@+]2[O-] |  | telemetry | conscious dog | intravenous, 8 mg/kg, 2 h |  | diastolic blood pressure | 83 ± 17 mmHg

Excerpt of the above:
SMILES | target or system | test | test system | setting | scale | endpoint | result
O=C(CCCN1CC=C(n2c(=O)[nH]c3ccccc32)CC1)c1ccc(F)cc1 |  |  | male Hartley guinea pigs, anaesthetized | intravenous, 0.1 mg/kg over 10 min, after infusion |  | mean blood pressure | 31 ± 0.2 mmHg
C[C@H]1CNC(=O)c2cnn3ccc(nc23)N[C@H](C)c2cc(F)ccc2O1 |  |  | Balb/c nude mice, female, brain | oral, 15 mg/kg twice daily, 1 h, steady state |  | unbound concentration | 3.1 ± 0.7 nM
CNCCOC12CC3(C)CC(C)(CC(Cn4ncc(-c5ccc(N6CCc7cccc(C(=O)Nc8nc9ccccc9s8)c7C6)nc5C(=O)O)c4C)(C3)C1)C2 |  |  | beagle dog, male, anaesthetised | intravenous bolus, 0.03 mg/kg, 60 min | relative to: baseline | QTcV interval change | 13 ms
FC(F)(F)c1ccc(CNc2ccc(Cc3c[nH]c4ncc(Cl)cc34)cn2)cn1 |  | item: Dysgeusia | patients with advanced solid tumours, non-TGCT cohort | oral, 1000 mg/day, any grade |  | treatment-related adverse events | 12%
O=S(=O)(c1ccc(-c2ccc3nccc(Nc4ccncn4)c3c2)cc1)N1CCOCC1 |  |  | female BALB/c mice, brain | intraperitoneal, 10 mg/kg, 24 h, mean |  | brain concentration | 0 ng/g
Cc1cc(-c2nnc(N)nc2-c2ccc(F)cc2)cc(Cl)n1 |  | item: Fatigue | human phase Ia/Ib mCRPC, immunotherapy-naive | oral, dose not given |  | patients with treatment-related adverse events | 29.2%
CCCCOC(=O)N1CCN(C(=O)[C@H](CP(=O)(O)O)NC(=O)c2cc(N3CC[C@H](OC)C3)nc(-c3ccccc3)n2)CC1 |  | item: alanine aminotransferase | human, blood | 8 mg, 24 h |  | change from baseline | -0.8 ± 4.1 U/L
